Assay results pooled from the literature.
Protocols differ between the studies behind these lines. ± gives the spread as reported.
UCHL1: Ubiquitin carboxyl-terminal hydrolase isozyme L1 (UCHL1, Homo sapiens, UniProt P09936)
UniProt P09936, sequence (whole entry, looked up): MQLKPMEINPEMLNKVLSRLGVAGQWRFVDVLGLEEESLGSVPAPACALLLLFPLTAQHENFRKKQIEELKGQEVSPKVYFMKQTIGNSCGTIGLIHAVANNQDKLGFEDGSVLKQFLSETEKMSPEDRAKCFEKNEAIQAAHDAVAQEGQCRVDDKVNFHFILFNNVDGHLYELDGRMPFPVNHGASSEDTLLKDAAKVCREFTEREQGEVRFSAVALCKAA
KDM4A: Lysine-specific demethylase 4A (KDM4A, Homo sapiens, UniProt O75164)
UniProt P42336, sequence (whole entry, unmodified, looked up): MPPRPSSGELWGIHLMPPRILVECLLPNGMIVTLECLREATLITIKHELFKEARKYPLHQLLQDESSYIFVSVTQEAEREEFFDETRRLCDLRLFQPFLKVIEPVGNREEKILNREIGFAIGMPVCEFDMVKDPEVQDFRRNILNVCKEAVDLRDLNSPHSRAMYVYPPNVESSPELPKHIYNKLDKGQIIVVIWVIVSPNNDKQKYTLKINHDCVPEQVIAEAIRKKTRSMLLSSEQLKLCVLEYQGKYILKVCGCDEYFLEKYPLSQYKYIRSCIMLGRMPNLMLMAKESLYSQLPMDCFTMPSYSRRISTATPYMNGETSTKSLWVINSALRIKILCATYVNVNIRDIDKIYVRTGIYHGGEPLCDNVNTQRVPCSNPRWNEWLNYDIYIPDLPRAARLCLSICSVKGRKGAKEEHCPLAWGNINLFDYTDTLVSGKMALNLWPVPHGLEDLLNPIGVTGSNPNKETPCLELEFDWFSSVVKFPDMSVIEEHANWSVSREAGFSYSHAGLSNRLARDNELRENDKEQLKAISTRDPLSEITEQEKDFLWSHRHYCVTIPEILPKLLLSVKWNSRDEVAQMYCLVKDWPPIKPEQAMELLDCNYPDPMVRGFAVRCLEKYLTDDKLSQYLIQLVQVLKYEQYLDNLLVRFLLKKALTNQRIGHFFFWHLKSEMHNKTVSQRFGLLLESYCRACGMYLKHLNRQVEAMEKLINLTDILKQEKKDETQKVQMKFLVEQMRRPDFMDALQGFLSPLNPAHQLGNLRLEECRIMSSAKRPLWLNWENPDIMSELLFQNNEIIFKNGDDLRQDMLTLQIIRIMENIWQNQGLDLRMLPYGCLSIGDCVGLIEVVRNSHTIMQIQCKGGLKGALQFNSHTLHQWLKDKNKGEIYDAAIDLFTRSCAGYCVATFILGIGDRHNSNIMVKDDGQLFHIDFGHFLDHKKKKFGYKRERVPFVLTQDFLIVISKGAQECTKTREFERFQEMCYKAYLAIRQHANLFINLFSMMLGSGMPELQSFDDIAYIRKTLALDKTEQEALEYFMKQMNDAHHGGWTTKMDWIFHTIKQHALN
UniProt P16234, sequence (whole entry, unmodified, looked up): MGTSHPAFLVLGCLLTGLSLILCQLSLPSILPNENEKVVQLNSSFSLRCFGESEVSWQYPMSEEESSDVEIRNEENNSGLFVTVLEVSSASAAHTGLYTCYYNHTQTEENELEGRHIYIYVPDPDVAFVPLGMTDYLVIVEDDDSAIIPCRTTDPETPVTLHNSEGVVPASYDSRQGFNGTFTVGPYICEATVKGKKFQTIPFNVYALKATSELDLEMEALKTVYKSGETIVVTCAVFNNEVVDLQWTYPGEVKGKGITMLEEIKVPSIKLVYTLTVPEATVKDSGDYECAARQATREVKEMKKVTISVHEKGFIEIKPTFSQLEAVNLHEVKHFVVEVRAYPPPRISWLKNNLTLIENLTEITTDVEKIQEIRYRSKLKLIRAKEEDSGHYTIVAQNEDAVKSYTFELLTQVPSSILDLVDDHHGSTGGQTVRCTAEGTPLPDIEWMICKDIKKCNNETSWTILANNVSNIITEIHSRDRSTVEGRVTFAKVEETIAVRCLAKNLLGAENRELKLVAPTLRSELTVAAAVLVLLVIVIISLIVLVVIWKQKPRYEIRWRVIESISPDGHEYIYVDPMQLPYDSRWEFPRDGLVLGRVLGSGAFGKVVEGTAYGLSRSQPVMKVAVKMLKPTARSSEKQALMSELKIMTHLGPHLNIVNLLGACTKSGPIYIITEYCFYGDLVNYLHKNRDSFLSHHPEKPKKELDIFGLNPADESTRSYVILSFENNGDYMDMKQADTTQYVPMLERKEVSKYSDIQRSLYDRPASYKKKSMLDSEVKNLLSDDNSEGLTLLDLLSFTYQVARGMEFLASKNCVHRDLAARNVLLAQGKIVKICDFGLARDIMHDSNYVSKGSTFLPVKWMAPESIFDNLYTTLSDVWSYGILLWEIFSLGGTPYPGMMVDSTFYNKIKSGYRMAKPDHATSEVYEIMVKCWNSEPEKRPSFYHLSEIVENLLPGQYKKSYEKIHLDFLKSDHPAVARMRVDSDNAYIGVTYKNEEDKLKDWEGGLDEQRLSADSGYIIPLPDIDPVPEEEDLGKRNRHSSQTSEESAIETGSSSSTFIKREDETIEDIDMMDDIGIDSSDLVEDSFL
UniProt O75164, sequence (whole entry, looked up): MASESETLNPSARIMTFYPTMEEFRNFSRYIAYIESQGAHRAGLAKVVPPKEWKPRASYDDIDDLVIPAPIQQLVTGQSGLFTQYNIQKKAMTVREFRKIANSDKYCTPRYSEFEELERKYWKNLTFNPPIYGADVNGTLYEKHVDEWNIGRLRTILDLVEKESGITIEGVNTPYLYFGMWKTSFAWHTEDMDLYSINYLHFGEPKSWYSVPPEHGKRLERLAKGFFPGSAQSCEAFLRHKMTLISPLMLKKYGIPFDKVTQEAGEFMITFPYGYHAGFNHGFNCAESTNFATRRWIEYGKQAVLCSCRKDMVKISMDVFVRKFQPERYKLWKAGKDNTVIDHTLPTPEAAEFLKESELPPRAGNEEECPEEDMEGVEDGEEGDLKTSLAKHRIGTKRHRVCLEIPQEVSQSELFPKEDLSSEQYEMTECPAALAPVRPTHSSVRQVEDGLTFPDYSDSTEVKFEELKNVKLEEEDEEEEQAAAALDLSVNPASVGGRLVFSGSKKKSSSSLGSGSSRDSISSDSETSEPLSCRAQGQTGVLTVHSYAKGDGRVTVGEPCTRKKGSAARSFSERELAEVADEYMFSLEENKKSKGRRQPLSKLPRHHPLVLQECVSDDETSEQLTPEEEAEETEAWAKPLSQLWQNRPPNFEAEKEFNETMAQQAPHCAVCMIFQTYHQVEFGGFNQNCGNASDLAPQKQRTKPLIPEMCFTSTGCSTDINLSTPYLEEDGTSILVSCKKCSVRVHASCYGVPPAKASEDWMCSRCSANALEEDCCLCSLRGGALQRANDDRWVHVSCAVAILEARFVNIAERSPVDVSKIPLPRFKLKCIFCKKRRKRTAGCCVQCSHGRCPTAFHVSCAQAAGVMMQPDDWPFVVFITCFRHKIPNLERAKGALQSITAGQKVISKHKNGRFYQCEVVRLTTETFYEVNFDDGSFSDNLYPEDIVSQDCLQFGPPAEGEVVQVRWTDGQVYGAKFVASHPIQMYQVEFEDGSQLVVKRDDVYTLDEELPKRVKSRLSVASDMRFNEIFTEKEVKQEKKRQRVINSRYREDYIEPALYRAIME
UniProt Q6SA08, sequence (whole entry, looked up): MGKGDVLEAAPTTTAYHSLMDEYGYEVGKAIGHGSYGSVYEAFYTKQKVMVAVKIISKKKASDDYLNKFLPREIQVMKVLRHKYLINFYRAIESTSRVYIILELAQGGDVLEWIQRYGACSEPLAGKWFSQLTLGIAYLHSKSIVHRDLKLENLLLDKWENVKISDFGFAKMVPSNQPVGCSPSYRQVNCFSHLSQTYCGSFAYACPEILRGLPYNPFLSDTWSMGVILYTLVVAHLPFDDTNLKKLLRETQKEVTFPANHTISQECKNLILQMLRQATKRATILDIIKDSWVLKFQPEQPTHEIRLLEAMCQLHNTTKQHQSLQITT
UniProt P97821, sequence (whole entry, looked up): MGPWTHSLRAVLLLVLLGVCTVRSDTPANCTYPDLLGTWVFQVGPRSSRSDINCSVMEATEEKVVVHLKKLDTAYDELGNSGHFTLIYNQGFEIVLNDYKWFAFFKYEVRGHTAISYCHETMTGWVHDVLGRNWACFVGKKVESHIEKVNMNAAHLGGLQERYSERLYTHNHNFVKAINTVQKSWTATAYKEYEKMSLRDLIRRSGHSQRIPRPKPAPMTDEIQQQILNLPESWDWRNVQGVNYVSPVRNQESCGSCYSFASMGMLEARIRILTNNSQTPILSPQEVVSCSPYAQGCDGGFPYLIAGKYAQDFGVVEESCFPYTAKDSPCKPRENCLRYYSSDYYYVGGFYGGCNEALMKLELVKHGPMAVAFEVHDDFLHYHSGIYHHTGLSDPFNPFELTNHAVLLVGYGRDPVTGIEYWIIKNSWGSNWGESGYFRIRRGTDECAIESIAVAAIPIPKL
UniProt P45983, sequence (whole entry, looked up): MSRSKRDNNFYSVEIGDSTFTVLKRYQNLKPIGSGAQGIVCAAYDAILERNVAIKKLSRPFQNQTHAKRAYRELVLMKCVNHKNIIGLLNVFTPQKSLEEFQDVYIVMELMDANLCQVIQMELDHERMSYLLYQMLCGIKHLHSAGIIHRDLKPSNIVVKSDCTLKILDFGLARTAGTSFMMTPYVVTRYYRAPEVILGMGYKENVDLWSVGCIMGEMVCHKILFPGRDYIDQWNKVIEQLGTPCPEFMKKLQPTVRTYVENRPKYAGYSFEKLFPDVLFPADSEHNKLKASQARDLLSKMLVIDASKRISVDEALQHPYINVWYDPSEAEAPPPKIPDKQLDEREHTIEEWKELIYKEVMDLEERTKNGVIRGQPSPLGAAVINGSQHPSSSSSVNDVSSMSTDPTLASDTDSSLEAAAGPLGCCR

Structure (SMILES)	tested on	test	test system	conditions	how to read	quantity	value
COc1cc(-c2cncc3c2CN(C)Cc2cc(N4CCNCC4)ccc2-3)cc(OC)c1OC	PDGFRA (Homo sapiens, UniProt P16234, V561D)	kinase activity	–	1 µM, with: ATP 10 µM	baseline: DMSO control	remaining activity	76%
O=C(O)c1occc1S(=O)(=O)NCC1CC(c2ccccc2)C1 (stereo not drawn)	malate dehydrogenase	enzyme activity, inhibitor	–	200 µM, pH 7.0, 1% DMSO, aggregation counter-screen	–	remaining activity	95%
O=C(O)c1ccc(Nc2ncc3c(n2)-c2ccc(Cl)cc2C(c2c(F)cccc2F)=NC3)cc1	human IGF-1R(h)	kinase activity	–	1 µM	–	remaining activity	88%
CN(C1CCCCC1)S(=O)(=O)c1ccccc1NC(=O)CCl	UCHL1	covalent, intact protein LC-MS	–	12.5 µM	–	labelling	21.5%
Nc1ncc2c(n1)-c1c([nH]c3ccc(-c4ccc(F)cc4)cc13)CCC2	TSSK4 (Homo sapiens, UniProt Q6SA08)	kinase activity, inhibitor, radiometric	–	1 µM, with: ATP at Km	–	remaining activity	56%
CNC(=O)COc1ccc(NS(=O)(=O)c2cc(Cl)cc(Cl)c2O)cc1	malate dehydrogenase	enzyme activity, inhibitor	–	200 µM, pH 7.0, 1% DMSO, aggregation counter-screen	–	remaining activity	98%
COc1cc(F)ccc1-c1ncnc(Nc2cccc(C[S@](C)(=N)=O)c2)n1	PDGFRA (Homo sapiens, UniProt P16234)	kinase activity	–	10 µM, with: 10 µM ATP	–	remaining activity	35%
Cc1cc(Nc2cc(N3CCN(C)CC3)nc(Sc3ccc(NC(=O)C4CC4)cc3)n2)[nH]n1	SRPK1 (Homo sapiens, UniProt Q96SB4)	kinase activity, KinaseProfiler	–	0.03 µM, species human	baseline: control	remaining activity	98%
COc1cccc(Cl)c1[C@@H]1C[C@H]1NS(=O)(=O)c1ccsc1C(=O)O	malate dehydrogenase	enzyme activity, inhibitor	–	200 µM, pH 7.0, 1% DMSO, aggregation counter-screen	–	remaining activity	135%
Cc1cccc(C)c1C(=O)OCC(=O)[C@H](CCCCN)NC(=O)[C@H](CCCNC(=N)N)NC(=O)OCc1ccccc1	Ctsc (Mus musculus, UniProt P97821)	inhibitor	–	1 µM, with: AMC fluorogenic substrate	baseline: untreated	remaining activity	100%
Cn1ncc(S(=O)(=O)NC2CCSc3ccc(Cl)cc32)c1C(=O)O (stereo not drawn)	malate dehydrogenase	enzyme activity, inhibitor	–	200 µM, pH 7.0, 1% DMSO, aggregation counter-screen	–	remaining activity	105%
Cc1ccc(NC(=O)c2ccc(C)c(C(F)(F)F)c2)cc1C#Cc1nn(C2CCC(O)CC2)c2ncnc(N)c12 (stereo not drawn)	Phosphatidylinositol 4,5-bisphosphate 3-kinase catalytic subunit alpha isoform, with p85 alpha (PIK3CA, Homo sapiens, UniProt P42336, E545K)	enzyme activity, inhibitor	–	10 µM, p110a(E545K)/p85a)(h human, with: ATP 10 µM	–	remaining activity	92%
NC/C(=C\F)COc1cccc(Cn2c(=S)[nH]c(=O)c3[nH]cnc32)c1	Myeloperoxidase (MPO, Homo sapiens, UniProt P05164)	LDL lipid peroxidation, inhibitor, measured: cholesteryl ester hydroperoxide	–	0.00023 µM	baseline: control	remaining activity	89%
O=S(=O)(NCC1Cc2cc(Br)ccc2O1)c1cccc(Cl)c1O (stereo not drawn)	malate dehydrogenase	enzyme activity, inhibitor	–	200 µM, pH 7.0, 1% DMSO, aggregation counter-screen	–	remaining activity	102%
C=CC(=O)N1CCC[C@@H](n2nc(-c3ccc(Oc4ccccc4)cc3)c3c(N)ncnc32)C1	PTK2 (Homo sapiens, UniProt Q05397)	–	–	10 µM	–	remaining activity	132%
c1cnc2ccc(Nc3nc(NC4CC4)c4nc[nH]c4n3)cc2c1	PIK3C3 (Homo sapiens, UniProt Q8NEB9)	kinase activity, inhibitor, SelectScreen kinase profiling	–	1 µM	baseline: control	remaining activity	69%
CCCOc1ccc(OC)c(F)c1C(=O)c1ccc(C(=O)N[C@@H]2CNC[C@H]2NC(=O)c2ccc3[nH]ncc3c2)cc1	BTK (Homo sapiens, UniProt Q06187, R28H)	enzyme activity	–	10 µM	–	remaining activity	99%

Structure (SMILES)	tested on	test	test system	conditions	how to read	quantity	value
Cc1c(C[S+](C)[O-])cccc1NS(=O)(=O)c1cccc(Cl)c1O (stereo not drawn)	malate dehydrogenase	enzyme activity, inhibitor	–	200 µM, pH 7.0, 1% DMSO, aggregation counter-screen	–	remaining activity	84%
Cc1cc(C(=O)CCl)c(C)n1-c1cccc(Cl)c1	UCHL1	covalent, intact protein LC-MS	–	12.5 µM	–	labelling	10.3%
COc1ccc(F)cc1C(=O)NCc1ccc(-c2nn([C@@H](C)C(F)(F)F)c(N)c2C(N)=O)cc1	STK25 (Homo sapiens, UniProt O00506)	kinase activity, inhibitor, HotSpot radiometric	–	1000 nM, with: ATP at Km	–	remaining activity	88.8 ± 1.6%
Cc1ccc(NS(=O)(=O)c2cccc(Cl)c2O)c(-c2ncn[nH]2)c1	malate dehydrogenase	enzyme activity, inhibitor	–	200 µM, pH 7.0, 1% DMSO, aggregation counter-screen	–	remaining activity	76%
C[C@H]1[C@H](OC(=O)CCC(=O)O)O[C@@H]2O[C@@]3(C)CC[C@H]4[C@H](C)CC[C@@H]1[C@@]24OO3	Non-structural polyprotein pORF1, helicase domain (Hepatitis E virus genotype 1, UniProt P33424)	ATPase activity, inhibitor, colorimetric	–	156 µM	baseline: untreated	remaining activity	50.1%
CNc1ncc2c(/C=C/C(=O)N3CCC(OC)CC3)nn(Cc3cccc(C(F)(F)F)c3)c2n1	EPHA7 (Homo sapiens, UniProt Q15375)	kinase activity, inhibitor	–	1 µM	baseline: untreated control	remaining activity	104%
Cc1nc2cc(Cl)c(NS(=O)(=O)c3cccc(Cl)c3O)cc2s1	malate dehydrogenase	enzyme activity, inhibitor	–	40 µM, pH 7.0, 1% DMSO, aggregation counter-screen	–	remaining activity	110%
C=CC[C@@H]1c2ccc(OC)c(OC)c2CN2CCc3cc4c(cc3[C@H]12)OCO4	P2X purinoceptor 7 (P2rx7, Mus musculus, UniProt Q9Z1M0, A312V)	ATP-evoked current, inhibitor, whole-cell patch clamp	–	30 µM, A312V variant	–	remaining activity	20.4%
C=CC(=O)N1CCC([C@@H]2CCNc3c(C(N)=O)c(-c4ccc(Oc5ccccc5)cc4)nn32)CC1	Tyrosine-protein kinase Lyn, isoform B (LYN, Homo sapiens, UniProt P07948)	kinase activity, inhibitor, HotSpot radiometric	–	100 nM, with: ATP 10 µM	–	remaining activity	90.1 ± 3.6%
Cc1cc(NC(=O)c2cccc(NC(=O)/C=C/CN(C)C)c2)ccc1Nc1nccc(-c2cccnc2)n1	MAPK8 (Homo sapiens, UniProt P45983)	enzyme activity, inhibitor	–	0.006774 µM, 6 h, unit not given, with: GSH 10 mM pre-incubation	baseline: vehicle	remaining activity	1
C/C(CC(O)(C(F)(F)F)C(F)(F)F)=N/Nc1ccc([N+](=O)[O-])cc1[N+](=O)[O-]	KDM4A	–	–	concentration not given	–	remaining activity	92%
C1=C/COCc2cc(ccc2OCCN2CCCC2)Nc2nccc(n2)-c2cccc(c2)COC/1	EGFR (Homo sapiens, UniProt P00533, G719S)	–	–	concentration not given	baseline: untreated control	remaining activity	84%
CC(C)Oc1cccc(C(=O)C2CCCN(Cc3cnn(C(C)C)c3)C2)c1 (stereo not drawn)	Trypanosoma cruzi	reporter translation, Renilla luciferase mRNA translation	cell-free extract	40 µM	baseline: DMSO	inhibition	-6.7%
O=C(NC1CCC1)c1ccc2nc(-c3cccc(NS(=O)(=O)NCCN4CCCCC4)c3)cn2c1	PIK3CA (Homo sapiens, UniProt P42336, M1043I)	enzyme activity	–	10 µM	–	remaining activity	100%
O=C(O)c1cc(N=Cc2ccccc2O)cc(C(=O)O)c1	KDM4A	–	–	concentration not given	–	remaining activity	93%
COc1cc(Nc2ncc3c(n2)-c2ccc(Cl)cc2C(c2c(F)cccc2OC)=NC3)ccc1C(=O)O	ABL2	kinase activity	–	1 µM	–	remaining activity	47%

A few entries again:
Structure (SMILES)	tested on	test	test system	conditions	how to read	quantity	value
Cc1nc2cc(Cl)c(NS(=O)(=O)c3cccc(Cl)c3O)cc2s1	malate dehydrogenase	enzyme activity, inhibitor	–	40 µM, pH 7.0, 1% DMSO, aggregation counter-screen	–	remaining activity	110%
C=CC[C@@H]1c2ccc(OC)c(OC)c2CN2CCc3cc4c(cc3[C@H]12)OCO4	P2X purinoceptor 7 (P2rx7, Mus musculus, UniProt Q9Z1M0, A312V)	ATP-evoked current, inhibitor, whole-cell patch clamp	–	30 µM, A312V variant	–	remaining activity	20.4%
C=CC(=O)N1CCC([C@@H]2CCNc3c(C(N)=O)c(-c4ccc(Oc5ccccc5)cc4)nn32)CC1	Tyrosine-protein kinase Lyn, isoform B (LYN, Homo sapiens, UniProt P07948)	kinase activity, inhibitor, HotSpot radiometric	–	100 nM, with: ATP 10 µM	–	remaining activity	90.1 ± 3.6%
Cc1cc(NC(=O)c2cccc(NC(=O)/C=C/CN(C)C)c2)ccc1Nc1nccc(-c2cccnc2)n1	MAPK8 (Homo sapiens, UniProt P45983)	enzyme activity, inhibitor	–	0.006774 µM, 6 h, unit not given, with: GSH 10 mM pre-incubation	baseline: vehicle	remaining activity	1
